Results collected from several papers.
Lines come from different studies, so protocols differ. “And” joins repeats or separate records; there may be more than shown. Numbers after ± are the reported error.
Target: Casein kinase I isoform alpha (CSNK1A1, Homo sapiens, UniProt P48729)
Sequence of UniProt P48729 (whole entry, looked up): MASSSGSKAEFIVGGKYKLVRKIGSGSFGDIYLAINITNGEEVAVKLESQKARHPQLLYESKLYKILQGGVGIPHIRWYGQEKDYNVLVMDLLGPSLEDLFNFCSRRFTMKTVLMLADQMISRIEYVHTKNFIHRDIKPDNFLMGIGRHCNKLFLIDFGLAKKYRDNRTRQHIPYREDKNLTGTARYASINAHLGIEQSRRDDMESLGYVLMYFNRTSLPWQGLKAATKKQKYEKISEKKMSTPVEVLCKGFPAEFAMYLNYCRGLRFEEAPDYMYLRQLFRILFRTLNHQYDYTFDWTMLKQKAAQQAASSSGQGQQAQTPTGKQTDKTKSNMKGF

Compound | test | system | setting | how to read | endpoint | result
Fc1ccc(-c2nn3cc(F)ccc3c2-c2ccncc2)cc1 | kinase activity, inhibitor, ADP-Glo | – | 0.8751 µM, 0.5 h | – | remaining activity | 22% and 45.3%
COc1ccc(F)cc1C(=O)NCc1ccc(-c2nn([C@@H](C)C(F)(F)F)c(N)c2C(N)=O)cc1 | kinase activity, inhibitor, HotSpot radiometric | – | 100 nM, added: ATP 10 µM | – | remaining activity | 69.2 ± 2.7%
CC[C@@H]1[C@H](F)C(=O)N[C@@H]1COc1nccc2cc(C(N)=O)c(OC)cc12 | ATP probe binding, KiNativ profiling, refers to: Lys2 probe site | THP-1 cell lysate | 0.04 mM | – | inhibition | -2.5%
CNc1ncc2c(/C=C/C(=O)N3CCC(OC)CC3)nn(Cc3cccc(C(F)(F)F)c3)c2n1 | kinase activity, inhibitor | – | 1 µM | relative to: untreated control | remaining activity | 100%
c1ccc(-c2occc2-c2ccnc3ccccc23)nc1 | enzyme activity, ADP-Glo | – | – | relative to: IC50 over Yck2 IC50 | selectivity ratio | > 5
COc1cc(-c2cncc3c2CN(C)Cc2cc(N4CCNCC4)ccc2-3)cc(OC)c1OC | kinase activity | – | 1 µM, human enzyme, added: ATP 10 µM | relative to: DMSO control | remaining activity | 95%
c1ccc(Cc2[nH]nc(-c3ccccn3)c2-c2ccnc3ccccc23)cc1 | enzyme activity, ADP-Glo | – | – | relative to: IC50 over Yck2 IC50 | selectivity ratio | 1
C=CC(=O)N1CCC[C@@H](n2nc(-c3ccc(Oc4ccccc4)cc3)c3c(N)ncnc32)C1 | kinase activity, inhibitor, HotSpot radiometric | – | 100 nM, added: ATP 10 µM | – | remaining activity | 78.8 ± 2.6%
c1ccc(-c2[nH]ccc2-c2ccnc3ccccc23)nc1 | enzyme activity, ADP-Glo | – | – | relative to: IC50 over Yck2 IC50 | selectivity ratio | > 6
Fc1ccc(-c2nc3cc(F)ccn3c2-c2ccncc2)cc1 | kinase activity, inhibitor, ADP-Glo | – | 0.273 µM, 0.5 h | – | remaining activity | 46.7% and 20.2%

Excerpt of the above:
Compound | test | system | setting | how to read | endpoint | result
Fc1ccc(-c2nc3cc(F)ccn3c2-c2ccncc2)cc1 | kinase activity, inhibitor, ADP-Glo | – | 0.273 µM, 0.5 h | – | remaining activity | 46.7% and 20.2%
